Measured values gathered from unrelated publications.
Numbers after ± are the reported error.
Sequence of UniProt Q13188 (whole entry, looked up): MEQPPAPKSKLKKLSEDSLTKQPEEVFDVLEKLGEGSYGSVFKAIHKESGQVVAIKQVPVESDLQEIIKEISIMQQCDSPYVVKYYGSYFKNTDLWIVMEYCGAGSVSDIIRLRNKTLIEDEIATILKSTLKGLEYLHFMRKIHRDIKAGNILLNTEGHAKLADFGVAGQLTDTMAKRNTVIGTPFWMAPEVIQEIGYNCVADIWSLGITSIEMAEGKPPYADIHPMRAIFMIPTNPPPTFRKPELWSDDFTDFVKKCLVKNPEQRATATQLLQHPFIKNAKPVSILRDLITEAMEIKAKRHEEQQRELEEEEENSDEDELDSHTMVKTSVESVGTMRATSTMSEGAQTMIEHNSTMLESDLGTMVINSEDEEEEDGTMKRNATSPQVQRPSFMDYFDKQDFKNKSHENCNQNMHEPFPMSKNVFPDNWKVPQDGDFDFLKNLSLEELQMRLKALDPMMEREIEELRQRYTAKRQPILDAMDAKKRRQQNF

Compound | tested on | assay | test system | conditions | how to read | endpoint | result
CC1(C)CCC(CN2CCN(c3ccc(C(=O)NS(=O)(=O)c4ccc(NCC5CCOCC5)c([N+](=O)[O-])c4)c(Oc4cnc5[nH]ccc5c4)c3)CC2)=C(c2ccc(Cl)cc2)C1 | CD19+ B cells from myeloma patients | cell viability, high-throughput flow cytometry | – | – | – | IC50 | 0.00567 µM
c1coc(-c2n[nH]cc2-c2ccnc3ccccc23)c1 | DUN1 (Candida albicans) | kinase binding, MIB/MS competition | Candida albicans lysate | 1 µM | baseline: DMSO | log2 fold change | -0.15
O=C(Nc1c(Cl)cncc1Cl)c1ccc(OC(F)F)c(OCC2CC2)c1 | PBMC | cytokine release, MSD, refers to: IL-6 | – | 24 h, with: anti-CD3ε/anti-CD28 | – | IC50 | 0.023 µM
O=C(O)COCC(=O)O | hepatocytes, iPSC-derived, line W3 | cell viability, RealTime-Glo MT | – | 24 h, differentiation day 23 | – | IC50 | 13100 µM
CC[C@@H]1[C@H](F)C(=O)N[C@@H]1COc1nccc2cc(C(N)=O)c(OC)cc12 | STK3 (Homo sapiens, UniProt Q13188) | ATP-site probe binding, ActivX profiling, refers to: MST2 | THP-1 cell lysate | 0.04 mM, Lys1 site | – | inhibition | -5.9%
C=CC(=O)N1CCC[C@@H](c2ccc(C(N)=O)c3[nH]ccc23)C1 | TMD8 wild-type | calcium flux, FLIPR | – | 1 h preincubation, with: anti-IgM | – | IC50 | > 1 µM
Cn1cc(-c2ccc(-c3cncc(Cl)c3N3CCC4(CCNC4=O)CC3)cc2)cn1 | COLO 205 | gene expression, microarray, refers to: PDE3A mRNA | – | concentration not given, 6 h | baseline: untreated cells | log2 fold change | -2.77
CCOc1cc([C@@H](CS(C)(=O)=O)N2C(=O)c3cccc(NC(C)=O)c3C2=O)ccc1OC | PBMC | cytokine release, MSD, refers to: IL-6 | – | 24 h, with: anti-CD3ε/anti-CD28 | – | IC50 | 0.33 µM
Cc1c(C)c2c(c(C)c1O)CCC(C)(COc1ccc(CC3SC(=O)NC3=O)cc1)O2 (stereo not drawn) | hepatocytes, iPSC-derived, line L1 | cell viability, RealTime-Glo MT | – | 48 h, differentiation day 23 | – | IC50 | 10 µM
CCCCN1C[C@H](O)[C@@H](O)[C@@H](O)[C@H]1CO | sample A patient fibroblasts | Gb3 level lowering, LC-MS/MS, refers to: Gb3 d18:1/22:0 | – | 216 h | – | IC50 | 16.1 µM
CC#CC(=O)N1CCC[C@H]1c1nc(-c2ccc(C(=O)Nc3ccccn3)cc2)c2c(N)nccn12 | TMD8 wild-type | calcium flux, FLIPR | – | 1 h preincubation, with: anti-IgM | – | IC50 | 0.453 µM
CC(=O)c1c(O)c(C)c(O)c2c1OC1=CC(=O)C(C(C)=O)C(=O)C12C (single isomer, unassigned; (+)) | hepatocytes, iPSC-derived, line W3 | cell viability | – | 48 h | – | IC50 | 45 µM
C[C@H]1CN(C2COC2)CCN1c1ccc(Nc2cc(-c3ccnc(N4CCn5c(cc6c5CC(C)(C)C6)C4=O)c3CO)cn(C)c2=O)nc1 | TMD8 wild-type | calcium flux, FLIPR | – | 2 h preincubation, with: anti-IgM | – | IC50 | 0.0038 µM
Oc1ccccc1-c1n[nH]cc1-c1ccnc2ccccc12 | CDC15 (Candida albicans) | kinase binding, MIB/MS competition | Candida albicans lysate | 10 µM | baseline: DMSO | log2 fold change | -0.01
CC(C)C[C@H](NC(=O)C[C@H](O)[C@H](CC(C)C)NC(=O)[C@H](Cc1c[nH]cn1)NC(=O)CNC(=O)[C@@H](NC(=O)[C@H](C)NC(=O)[C@H](Cc1c[nH]c2ccccc12)NC(=O)[C@H](CCC(N)=O)NC(=O)[C@@H](Cc1ccccc1)NC(=O)COCCOCCNC(=O)CCC(C(=O)O)N1CCN(CC(=O)O)CCN(CC(=O)O)CCN(CC(=O)O)CC1)C(C)C)C(N)=O (stereo partly drawn) [lutetium-177 labelled] | – | – | BALB/c nu/nu mice, female, kidneys | 50 pmol, 1 h, with: PA 300 µg | – | tissue uptake | 5.3 ± 0.7 %ID/g

Some of these lines once more:
Compound | tested on | assay | test system | conditions | how to read | endpoint | result
CC(=O)c1c(O)c(C)c(O)c2c1OC1=CC(=O)C(C(C)=O)C(=O)C12C (single isomer, unassigned; (+)) | hepatocytes, iPSC-derived, line W3 | cell viability | – | 48 h | – | IC50 | 45 µM
Cc1c(C)c2c(c(C)c1O)CCC(C)(COc1ccc(CC3SC(=O)NC3=O)cc1)O2 (stereo not drawn) | hepatocytes, iPSC-derived, line L1 | cell viability, RealTime-Glo MT | – | 48 h, differentiation day 23 | – | IC50 | 10 µM
